Measurements of several laboratories.
Compare with care: the assays were run in different laboratories. Values joined by “and” are separate records of one study, mostly repeats; a detail may differ. ± marks the error that the study gave.
B1: anillin; sequence looked up; chain MDPFTEKLLERTRARRENLQRKMAERPTAAPRSMTHAKRARQPLSEASNQQPLSGGEEKSCTKPSPSKKRCSDNTEVEVSNLENKQPVESTSAKSCSPSPVSPQVQPQAADTISDSVAVPASLLGMRRGLNSRLEATAASSVKTRMQKLAEQRRRWDNDDMTDDIPESSLFSPMPSEEKAASPPRPLLSNASATPVGRRGRLANLAATICSWEDDVNHSFAKQNSVQEQPGTACLSKFSSASGASARINSSSVKQEATFCSQRDGDASLNKALSSSADDASLVNASISSSVKATSPVKSTTSITDAKSCEGQNPELLPKTPISPLKTGVSKPIVKSTLSQTVPSKGELSREICLQSQSKDKSTTPGGTGIKPFLERFGERCQEHSKESPARSTPHRTPIITPNTKAIQERLFKQDTSSSTTHLAQQLKQERQKELACLRGRFDKGNIWSAEKGGNSKSKQLETKQETHCQSTPLKKHQGVSKTQSLPVTEKVTENQIPAKNSSTEPKGFTECEMTKSSPLKITLFLEEDKSLKVTSDPKVEQKIEVIREIEMSVDDDDINSSKVINDLFSDVLEEGELDMEKSQEEMDQALAESSEEQEDALNISSMSLLAPLAQTVGVVSPESLVSTPRLELKDTSRSDESPKPGKFQRTRVPRAESGDSLGSEDRDLLYSIDAYRSQRFKETERPSIKQVIVRKEDVTSKLDEKNNAFPCQVNIKQKMQELNNEINMQQTVIYQASQALNCCVDEEHGKGSLEEAEAERLLLIATGKRTLLIDELNKLKNEGPQRKNKASPQSEFMPSKGSVTLSEIRLPLKADFVCSTVQKPDAANYYYLIILKAGAENMVATPLASTSNSLNGDALTFTTTFTLQDVSNDFEINIEVYSLVQKKDPSGLDKKKKTSKSKAITPKRLLTSITTKSNIHSSVMASPGGLSAVRTSNFALVGSYTLSLSSVGNTKFVLDKVPFLSSLEGHIYLKIKCQVNSSVEERGFLTIFEDVSGFGAWHRRWCVLSGNCISYWTYPDDEKRKNPIGRINLANCTSRQIEPANREFCARRNTFELITVRPQREDDRETLVSQCRDTLCVTKNWLSADTKEERDLWMQKLNQVLVDIRLWQPDACYKPIGKP
B2: CSK; sequence looked up; chain SAIQAAWPSGTECIAKYNFHGTAEQDLPFCKGDVLTIVAVTKDPNWYKAKNKVGREGIIPANYVQKREGVKAGTKLSLMPWFHGKITREQAERLLYPPETGLFLVRESTNYPGDYTLCVSCDGKVEHYRIMYHASKLSIDEEVYFENLMQLVEHYTSDADGLCTRLIKPKVMEGTVAAQDEFYRSGWALNMKELKLLQTIGKGEFGDVMLGDYRGNKVAVKCIKNDATAQAFLAEASVMTQLRHSNLVQLLGVIVEEKGGLYIVTEYMAKGSLVDYLRSRGRSVLGGDCLLKFSLDVCEAMEYLEGNNFVHRDLAARNVLVSEDNVAKVSDFGLTKEASSTQDTGKLPVKWTAPEALREKKFSTKSDVWSFGILLWEIYSFGRVPYPRIPLKDVVPRVEKGYKMDAPDGCPPAVYEVMKNCWHLDAAMRPSFLQLREQLEHIKTHELHL
B3: CDK4; sequence looked up; chain ATSRYEPVAEIGVGAYGTVYKARDPHSGHFVALKSVRVPNGGGGGGGLPISTVREVALLRRLEAFEHPNVVRLMDVCATSRTDREIKVTLVFEHVDQDLRTYLDKAPPPGLPAETIKDLMRQFLRGLDFLHANCIVHRDLKPENILVTSGGTVKLADFGLARIYSYQMALTPVVVTLWYRAPEVLLQSTYATPVDMWSVGCIFAEMFRRKPLFCGNSEADQLGKIFDLIGLPPEDDWPRDVSLPRGAFPPRGPRPVQSVVPEMEESGAQLLLEMLTFNPHKRISAFRALQHSYLHKDEGNPE
B4: calnexin; sequence looked up; chain HDGHDDDVIDIEDDLDDVIEEVEDSKPDTTAPPSSPKVTYKAPVPTGEVYFADSFDRGTLSGWILSKAKKDDTDDEIAKYDGKWEVEEMKESKLPGDKGLVLMSRAKHHAISAKLNKPFLFDTKPLIVQYEVNFQNGIECGGAYVKLLSKTPELNLDQFHDKTPYTIMFGPDKCGEDYKLHFIFRHKNPKTGIYEEKHAKRPDADLKTYFTDKKTHLYTLILNPDNSFEILVDQSVVNSGNLLNDMTPPVNPSREIEDPEDRKPEDWDERPKIPDPEAVKPDDWDEDAPAKIPDEEATKPEGWLDDEPEYVPDPDAEKPEDWDEDMDGEWEAPQIANPRCESAPGCGVWQRPVIDNPNYKGKWKPPMIDNPSYQGIWKPRKIPNPDFFEDLEPFRMTPFSAIGLELWSMTSDIFFDNFIICADRRIVDDWANDGWGLKKAADGAAEPGVVGQMIEAAEERPWLWVVYILTVALPVFLVILFCCSGKKQTSGMEYKKTDAPQPDVKEEEEEKEEEKDKGDEEEEGEEKLEEKQKSDAEEDGGTVSQEEEDRKPKAEEDEILNRSPRNRKPRRE
B5: ABCF1 protein; sequence looked up; chain MPKAPKQQPPEPEWIGDGESTSPSDKVVKKGKKDKKIKKTFFEELAVEDKQAGEEEKVLKEKEQQQQQQQQQQKKKRDTRKGRRKKDVDDDGEEKELMERLKKLSVPTSDEEDEVPAPKPRGGKKTKGGNVFAALIQDQSEEEEEEEKHPPKPAKPEKNRINKAVSEEQQPALKGKKGKEEKSKGKAKPQNKFAALDNEEEDKEEEIIKEKEPPKQGKEKAKKAEQGSEEEGEGEEEEEEGGESKADDPYAHLSKKEKKKLKKQMEYERQVASLKAANAAENDFSVSQAEMSSRQAMLENASDIKLEKFSISAHGKELFVNADLYIVAGRRYGLVGPNGKGKTTLLKHIANRALSIPPNIDVLLCEQEVVADETPAVQAVLRADTKRLKLLEEERRLQGQLEQGDDTAAERLEKVYEELRATGAAAAEAKARRILAGLGFDPEMQNRPTQKFSGGWRMRVSLARALFMEPTLLMLDEPTNHLDLNAVIWLNNYLQGWRKTLLIVSHDQGFLDDVCTDIIHLDAQRLHYYRGNYMTFKKMYQQKQKELLKQYEKQEKKLKELKAGGKSTKQAEKQTKEALTRKQQKCRRKNQDEESQEAPELLKRPKEYTVRFTFPDPPPLSPPVLGLHGVTFGYQGQKPLFKNLDFGIDMDSRICIVGPNGVGKSTLLLLLTGKLTPTHGEMRKNHRLKIGFFNQQYAEQLRMEETPTEYLQRGFNLPYQDARKCLGRFGLESHAHTIQICKLSGGQKARVVFAELACREPDVLILDEPTNNLDIESIDALGEAINEYKGAVIVVSHDARLITETNCQLWVVEEQSVSQIDGDFEDYKREVLEALGEVMVSRPRE
B6: CCT8; sequence looked up; chain ALHVPKAPGFAQMLKEGAKHFSGLEEAVYRNIQACKELAQTTRTAYGPNGMNKMVINHLEKLFVTNDAATILRELEVQHPAAKMIVMASHMQEQEVGDGTNFVLVFAGALLELAEELLRIGLSVSEVIEGYEIACRKAHEILPNLVCCSAKNLRDIDEVSSLLRTSIMSKQYGNEVFLAKLIAQACVSIFPDSGHFNVDNIRVCKILGSGISSSSVLHGMVFKKETEGDVTSVKDAKIAVYSCPFDGMITETKGTVLIKTAEELMNFSKGEENLMDAQVKAIADTGANVVVTGGKVADMALHYANKYNIMLVRLNSKWDLRRLCKTVGATALPRLTPPVLEEMGHCDSVYLSEVGDTQVVVFKHEKEDGAISTIVLRGSTDNLMDDIERAVDDGVNTFKVLTRDKRLVPGGGATEIELAKQITSYGETCPGLEQYAIKKFAEAFEAIPRALAENSGVKANEVISKLYAVHQEGNKNVGLDIEAEVPAVKDMLEAGILDTYLGKYWAIKLATNAAVTVLRVDQIIMAKPAGGPKPPSGKKDWDDDQND
B7: dermcidin; sequence looked up; chain YDPEAASAPGSGNPCHEASAAQKENAGEDPGLARQAPKPRKQRSSLLEKGLDGAKKAVGGLGKLGKDAVEDLESVGKGAVHDVKDVLDSVL

For `ETTLKSF`, the maximal inhibition was at most 48% (Plasmodium falciparum; merozoite invasion; peptide, 3D7 wild type; saturating concentrations).
`VPKFHLPVE` gave an IC50 of over 20 µM (Mamu-A1*02601 MHC class I; peptide binding; peptide, Chinese rhesus macaque).
`nonaarginine` gave a koff of 28.6 ± 3 s⁻¹ (PorA peptide pore; peptide binding, planar bilayer single-channel recording; 0.5 µM, pH 7.4, +10 mV, trans side, 150 mM KCl).
The colon length of `GWTLNSAGYLLGPHAVDNHRSFNDKHGFT-NH2 (C-amide)` is reported as 5.4 cm and 5.8 cm and 5.9 cm and 5.3 cm (peptide, Gnaq flox control mice, DSS colitis; ip, 3 µM, 2% DSS).
Under “log2 fold change”, `B1 (anillin)` is recorded as 0.0928 (peptide binding, SILAC pull-down; concentration not given; relative to: non-acetylated over acetylated NIT1 peptide).
For `pertussis toxin`, the p-PKA level was 17.9 MFI (immunostaining; humanized mouse, SAH model, meningeal F4/80+ macrophages; dose not given).
For `IRILQRALF`, the IC50 was over 20 µM (Mamu-B*08301 MHC class I; peptide binding; peptide, Chinese rhesus macaque).
`insulin human` gave a fold change of 1.2 (item: CDK5R1 mRNA; uninfected mouse, brain; i.p., dose not given; relative to: PBS).
The specific lysis of `YMLDLQPEV` is reported as 27.8% (Ca-Ski (HLA-A2+ HPV+); 111In release; peptide; concentration not given, 16 h, E:T 25:1 IVS 5, together with: peptide-generated T-cell line).
`B2 (CSK)` — result for “log2 fold change”: -0.669 (peptide binding, SILAC pull-down; concentration not given; relative to: non-acetylated over acetylated NIT1 peptide).
For `hexaarginine`, the kon was 1.85e+07 ± 2e+06 M⁻¹ s⁻¹ (PorA peptide pore; peptide binding, planar bilayer single-channel recording; 0.5 µM, pH 7.4, -20 mV, cis side, 150 mM KCl).
For `B3 (CDK4)`, “log2 fold change” read 1.98 (peptide binding, SILAC pull-down; concentration not given; relative to: non-acetylated over acetylated NIT1 peptide).
`colistin`: “radial growth ratio” 0.873 and 0.789 and 0.901 and 0.9 and 0.871 and 0.8 and 0.786 and 0.914 (Aspergillus fumigatus; wild type, minimal medium; concentration not given; relative to: untreated).
For `KISEYRHYC`, the specific lysis was 45.1% (Ca-Ski (HLA-A2+ HPV+); 111In release; peptide; concentration not given, 16 h, E:T 25:1 IVS 5, together with: peptide-generated T-cell line).
`GWTLNSAGYLLGPRRIDHLLMIKEMPIARGREEAPGA / YAVDNHRSFNDKHGFT-NH2 (C-amide)` gave a mRNA level of 2.88 and 4.06 and 4.67 and 4.04 and 5.19 and 3.72 and 3.6 (RT-qPCR, item: Tnf; chicken, DSS-induced colitis, ileum; ip, 50 µM, unit not given; relative to: Actb).
`(−)-antroquinonol A` has an IC50 of 8.91 µM and 7.21 µM (Hep3B; cytotoxicity, MTS).
The IC50 of `KKSEIYVAW` is reported as over 20 µM (Mamu-A1*02601 MHC class I; peptide binding; peptide, Chinese rhesus macaque).
`B4 (calnexin)`: “log2 fold change” -0.15 (peptide binding, SILAC pull-down; concentration not given; relative to: non-acetylated over acetylated NIT1 peptide).
`oseltamivir carboxylate` gave an EC50 of 4 µM (Influenza B virus; viral replication, visual CPE score; MDCK).
For `B5 (ABCF1 protein)`, “log2 fold change” read -1.98 (peptide binding, SILAC pull-down; concentration not given; relative to: non-acetylated over acetylated NIT1 peptide).
`aspterric acid` gave an inhibition of 22.6% (hypocotyl length; Arabidopsis thaliana Col-0 seeds; 3.125 µg/mL).
Under “log2 fold change”, `B6 (CCT8)` is recorded as 1.85 (peptide binding, SILAC pull-down; concentration not given; relative to: non-acetylated over acetylated NIT1 peptide).
`KISEYRHYV` has a specific lysis of 30.6% (HN-4 (HLA-A2+ HPV+); 111In release; peptide; concentration not given, 16 h, E:T 25:1 IVS 5, together with: peptide-generated T-cell line).
For `AHNAK protein`, “log2 fold change” read 0.447 (peptide binding, SILAC pull-down; concentration not given; relative to: non-acetylated over acetylated NIT1 peptide).
For `oseltamivir carboxylate`, the EC50 was over 100 µM (Influenza A virus H3N2; cytopathic effect, MTS; MDCK).
`B7 (dermcidin)`: “log2 fold change” -0.64 (peptide binding, SILAC pull-down; concentration not given; relative to: non-acetylated over acetylated NIT1 peptide).
`orexin-B` gave a maximal ΔF/F0 of -48.7% and 6.48% and -9.88% and 5.11% and -2.09% and 0.803% (non-responsive control sensor; sensor fluorescence, fluorescence imaging; HEK293T; 10 µM, together with: OXB 10 µM; relative to: baseline).

For quick reference, copied from above:
The specific lysis of `YMLDLQPEV` is reported as 27.8% (Ca-Ski (HLA-A2+ HPV+); 111In release; peptide; concentration not given, 16 h, E:T 25:1 IVS 5, together with: peptide-generated T-cell line).
`B2 (CSK)` — result for “log2 fold change”: -0.669 (peptide binding, SILAC pull-down; concentration not given; relative to: non-acetylated over acetylated NIT1 peptide).
